Published values of several laboratories.
Values joined by “and” are separate records of one study, mostly repeats; a detail may differ. Numbers after ± are the reported error. Values after ≈ are worked out from the molar mass of the structure shown.

SMILES = CCOC(=O)C1(Cc2ccc(C)cc2)Oc2cc(F)ccc2N(Cc2ccc(C)cc2)C1=O (stereo not shown); organism = Arabidopsis thaliana; assay = root length, petri dish germination; system = Col-0, 1/2 MS medium; setting = 200 µg/mL, 7 days, 22 °C, dark; measurement = inhibition; value = 56.1%
SMILES = COc1ccc(Cn2c3cc(=O)n(Cc4cccc(Cl)n4)c(C)c3c(=O)n2-c2ccccn2)cc1; organism = human respiratory syncytial virus; system = recombinant reporter virus; setting = concentration not given, scale 0 to 100, together with: adenosine 33.3 µM; measurement = normalized viral replication; value = 0
SMILES = COc1ccc(C2=[N+]([O-])c3ccccc3N3CCCN=C23)cc1; organism = Fusobacterium nucleatum; assay = microbial growth; measurement = MIC50; value = 0.5 µg/mL (≈ 1.63 µM)
SMILES = COc1ccc(Nc2ncnc3ccc(-c4ccc(S(=O)(=O)N5CCOCC5)cc4)cc23)cc1Cl; organism = Plasmodium falciparum; assay = parasite growth, SYBR Green fluorescence; system = W2, drug-resistant; measurement = EC50; value = 1700 nM
SMILES = CCOC(=O)C1(CC=C(C)C)Oc2cc(F)ccc2N(CC=C(C)C)C1=O (stereo not shown); organism = Arabidopsis thaliana; assay = root length, petri dish germination; system = Col-0, 1/2 MS medium; setting = 200 µg/mL, 7 days, 22 °C, dark; measurement = inhibition; value = 52%
SMILES = NCCO.O=C(O)C(Cl)Cl; organism = Xanthium sibiricum; setting = 15 mg/mL, 21 days, pre-emergence, greenhouse; measurement = herbicidal inhibition; value = 0%
SMILES = [2H]C([2H])(c1cc(F)c(F)cc1F)n1c(=O)n(Cc2ncn(C)n2)c(=O)[nH]/c1=N\c1cc2cn(C)nc2cc1Cl; organism = feline infectious peritonitis virus; assay = viral replication, qRT-PCR; system = CRFK; setting = 48 h; measurement = IC50; value = 50400 nM
SMILES = Fc1cccc(COc2ccc(Nc3ncnc4ccc(-c5cccc(-n6cccn6)c5)cc34)cc2Cl)c1; organism = Plasmodium falciparum; assay = parasite growth, SYBR Green; system = D6; setting = blood stage; measurement = EC50; value = > 15000 nM
SMILES = Cc1cc(C(=O)Nc2nc3cccc(C)c3n2[C@H]2CCCCN(C(=O)/C=C/CN(C)C)C2)ccn1; organism = Trypanosoma brucei brucei; system = 2T1 wild type; setting = 0.2778 µM; measurement = survival; value = 0.1% and 0.11% and -0.11% and -0.09% and -0.0154% and -0.019%
SMILES = CN(C)c1nc(NCc2ccc(-c3ccccc3)cc2)c(/N=N/c2ccc(Cl)cc2)c(N(C)C)n1; organism = Plutella xylostella; assay = leaf dipping; setting = 200 mg/L, 96 h; measurement = mortality; value = 63.3 ± 5.8%
SMILES = CC(C)C[C@H](NC(=O)[C@H](CC(C)C)NC(=O)[C@H](CCCCN)NC(=O)[C@H](Cc1ccccc1)NC(=O)[C@@H](NC(=O)[C@H](CCCNC(=N)N)NC(=O)[C@@H](N)CCCCN)C(C)C)C(=O)N[C@@H](CCCCN)C(=O)N[C@@H](CCCNC(=N)N)C(=O)N[C@@H](Cc1ccc(O)cc1)C(=O)N[C@@H](Cc1c[nH]c2ccccc12)C(=O)N[C@@H](CCCNC(=N)N)C(=O)N[C@@H](CCC(N)=O)C(=O)N[C@@H](CC(C)C)C(=O)N[C@@H](CCCCN)C(=O)N[C@@H](CCCCN)C(=O)N1CCC[C@H]1C(=O)N[C@H](C(=O)N[C@@H](CCCNC(=N)N)C(=O)NCCOCCOCC(=O)O)C(C)C; organism = Pseudomonas aeruginosa and Staphylococcus aureus; assay = crystal violet; setting = 32 µM, 24 h, polymicrobial biofilm; measurement = biofilm inhibition; value = > 95%
SMILES = CC(C)[C@H]1NC(=O)[C@H](Cc2ccccc2)NC(=O)[C@@H](C(C)C)NC(=O)[C@@H](C)NC(=O)[C@H](CO)NC(=O)[C@@H](Cc2c(-c3ccc(-c4cccc5ccccc45)cc3)[nH]c3ccccc23)NC(=O)[C@@H](CO)NC1=O; organism = Candida albicans; assay = broth dilution; measurement = MIC90; value = > 50 µM
SMILES = CCCCCCCC(=O)NCCCC[C@H](NC(=O)CCCCCCC)C(=O)N[C@@H](CCCCNC(=O)CCCCCCC)C(=O)NCC(=O)NCC(=O)NCC(=O)N[C@@H](CS)C(=O)N[C@@H](CCCNC(=N)N)C(=O)N[C@@H](CCCCN)C(=O)N1CCC[C@H]1C(=O)N[C@@H](CS)C(=O)N[C@@H](CCCNC(=N)N)C(=O)N[C@@H](CCCCN)C(=O)N1CCC[C@H]1C(=O)N[C@@H](CS)C(=O)N[C@@H](CCCNC(=N)N)C(=O)N[C@@H](CCCCN)C(=O)N1CCC[C@H]1C(N)=O; organism = Candida albicans; assay = broth microdilution; system = 14936, RPMI-1640; setting = 48 h, 30 °C; measurement = MIC; value = 8 µM (≈ 18.2 µg/mL)
SMILES = Fc1cccc(COc2ccc(Nc3ncnc4ccc(-c5cccc(N6CCCCC6)c5)cc34)cc2Cl)c1; organism = Plasmodium falciparum; assay = parasite growth, SYBR Green fluorescence; system = W2, drug-resistant; measurement = EC50; value = 1800 nM
SMILES = CCOC(=O)C1(Cc2ccccc2)Oc2ccccc2N(Cc2ccccc2)C1=O (stereo not shown); organism = Arabidopsis thaliana; assay = root length, petri dish germination; system = Col-0, 1/2 MS medium; setting = 50 µg/mL, 7 days, 22 °C, dark; measurement = inhibition; value = 56.9%
SMILES = Clc1cc(Nc2ncnc3ccc(-c4cccc(N5CCOCC5)c4)cc23)ccc1OCc1ccccc1; organism = Plasmodium falciparum; assay = parasite growth, SYBR Green; system = D6; setting = blood stage; measurement = EC50; value = 790 nM
SMILES = Cc1ccc(N2CC3CC(C2)N3C)cc1C(=O)NC1(c2ccc3c4c(cccc24)C(=O)N3C)CC1; organism = Betacoronavirus 1; assay = viral replication; system = Huh-7, OC43; setting = 0.75 µM; measurement = inhibition; value = 0%
SMILES = CCOC(=O)C1(Cc2ccc(C#N)cc2F)Oc2cc(F)ccc2N(Cc2ccc(C#N)cc2F)C1=O (stereo not shown); organism = Arabidopsis thaliana; assay = root length, petri dish germination; system = Col-0, 1/2 MS medium; setting = 200 µg/mL, 7 days, 22 °C, dark; measurement = inhibition; value = 51.2%
SMILES = Cc1ccc(Nc2ncnc3ccc(-c4ccc(S(=O)(=O)N5CCOCC5)cc4)cc23)cc1; organism = Plasmodium falciparum; assay = parasite growth, SYBR Green; system = D6; setting = blood stage; measurement = EC50; value = 1700 nM
SMILES = Nc1ccc(N=Nc2ccccc2)c2ccccc12; organism = HIV-1 subtype C; assay = viral replication; setting = 96 h; measurement = IC50; value = 96400 nM
SMILES = CCOC(=O)C1(Cc2cc(F)cc(F)c2)Oc2cc(F)ccc2N(Cc2cc(F)cc(F)c2)C1=O (stereo not shown); organism = Arabidopsis thaliana; assay = root length, petri dish germination; system = Col-0, 1/2 MS medium; setting = 200 µg/mL, 7 days, 22 °C, dark; measurement = inhibition; value = 52.9%
SMILES = CCN(CC)CCCC(C)Nc1ccnc2cc(Cl)ccc12 (stereo not shown); organism = Plasmodium falciparum; assay = parasite growth; system = K1; measurement = EC50; value = 553 ± 106 nM
SMILES = CN(C)S(=O)(=O)c1ccc(S(=O)(=O)N2CCC(n3c(=O)[nH]c4ccccc43)CC2)cc1; organism = Klebsiella pneumoniae; system = ATCC 700603 wild type, mouse lung infection, lung; setting = intraperitoneal, 6 mg/kg, 24 h; measurement = bacterial load reduction; value = 93%
SMILES = CCOC(=O)C1(CC#N)Oc2cc(F)ccc2N(CC#N)C1=O (stereo not shown); organism = Arabidopsis thaliana; assay = stem length, petri dish germination; system = Col-0, 1/2 MS medium; setting = 50 µg/mL, 7 days, 22 °C, dark; measurement = inhibition; value = 45.5%
SMILES = CCCCCCCC(=O)NCCCC[C@H](NC(=O)CCCCCCC)C(=O)N[C@@H](CCCCNC(=O)CCCCCCC)C(=O)NCC(=O)NCC(=O)NCC(=O)N[C@@H](CS)C(=O)N[C@@H](CCCNC(=N)N)C(=O)N[C@@H](CCCCN)C(=O)N1CCC[C@H]1C(N)=O; organism = Candida albicans; assay = broth microdilution; system = 58288, RPMI-1640; setting = 48 h, 30 °C; measurement = MIC; value = > 128 µM
SMILES = CC(=O)c1c(O)c(C)c(O)c2c1OC1=CC(=O)C(=C(C)NCCCC(=O)OC3OC4OC5(C)CCC6C(C)CCC(C3C)C46OO5)C(=O)C12C (stereo not shown); organism = Plasmodium berghei; system = ANKA GFP-transfected, NMRI mice; setting = oral, dose not given; measurement = delay of parasitaemia; value = 29 days
SMILES = CCCCCC[C@H]1C(=O)O[C@H](C)[C@H](NC(=O)c2cccc(NC=O)c2O)C(=O)O[C@@H](C)[C@@H]1OC(=O)CC(C)C; organism = Bovine alphaherpesvirus 1; assay = viral replication; system = MDBK; measurement = IC50; value = ~46 nM
SMILES = O=S(=O)(c1ccc(-c2ccc3ncnc(Nc4ccc(OCc5cccc(F)c5)c(Cl)c4)c3c2)cc1)N1CCNCC1; organism = Plasmodium falciparum; assay = parasite growth, SYBR Green fluorescence; system = C235 (TM91C235), drug-resistant; measurement = EC50; value = 120 nM
SMILES = CCOC(=O)C1(Cc2ccccc2F)Oc2cc(F)ccc2N(Cc2ccccc2F)C1=O (stereo not shown); organism = Arabidopsis thaliana; assay = stem length, petri dish germination; system = Col-0, 1/2 MS medium; setting = 200 µg/mL, 7 days, 22 °C, dark; measurement = inhibition; value = 71%
SMILES = CC[C@H](C)CCCCC(=O)N[C@@H](CCN)C(=O)N[C@H](C(=O)N[C@@H](CCN)C(=O)N[C@H]1CCNC(=O)[C@H]([C@@H](C)O)NC(=O)[C@H](CCN)NC(=O)[C@H](CCN)NC(=O)[C@H](CC(C)C)NC(=O)[C@@H](CC(C)C)NC(=O)[C@H](CCN)NC1=O)[C@@H](C)O; organism = Escherichia coli; assay = daily serial passaging; system = ATCC 8739; setting = highest sub-MIC, 29 days; scale = baseline: initial MIC; measurement = MIC fold change; value = 1.63
SMILES = CC(C)(C)OCc1ccc(-c2ccc3ncnc(Nc4ccc(OCc5cccc(F)c5)c(Cl)c4)c3c2)cc1; organism = Plasmodium falciparum; assay = parasite growth, SYBR Green fluorescence; system = C235 (TM91C235), drug-resistant; measurement = EC50; value = 690 nM
SMILES = CN(C(=O)c1ccn2ncc(-c3ccc(C(N)=O)cc3)c2c1)c1ccc(C#N)cn1; organism = Cryptosporidium parvum; system = UGA1 Nluc, IFN-gamma knockout C57BL/6 mice, faeces; setting = oral, 10 mg/kg daily, 120 h post infection, treatment days 11-17; scale = higher means more parasites; measurement = faecal Nluc luminescence; value = 6120 a.u. and 151 a.u. and 7190 a.u. and 4380 a.u.
SMILES = [O-][N+]1=C(Cc2ccccc2)C2=NCCCN2c2ccccc21; organism = Fusobacterium nucleatum; measurement = MIC90; value = 4 µg/mL
SMILES = O=S(=O)(c1ccc(-c2ccc3ncnc(Nc4ccc(OCc5cccc(F)c5)c(Cl)c4)c3c2)cc1)N1CCCCC1; organism = Plasmodium falciparum; assay = parasite growth, SYBR Green fluorescence; system = W2, drug-resistant; measurement = EC50; value = 330 nM
SMILES = FC(F)(F)c1cccc(CNc2nc(NC3CCN(Cc4ccccc4)CC3)c3nc[nH]c3n2)c1; organism = Cryptococcus neoformans; assay = RNA-seq, item: IPK1 (CNAG_01294); setting = 48 µg/mL, 3 h; scale = baseline: untreated; measurement = mRNA fold change; value = 1.15
SMILES = CCCN1C(=O)C(CCC)(C(=O)OCC)Oc2cc(F)ccc21 (stereo not shown); organism = Arabidopsis thaliana; assay = stem length, petri dish germination; system = Col-0, 1/2 MS medium; setting = 50 µg/mL, 7 days, 22 °C, dark; measurement = inhibition; value = 74.5%
SMILES = CCCCCCCC(=O)NCCCC[C@H](NC(=O)CCCCCCC)C(=O)N[C@@H](CCCCNC(=O)CCCCCCC)C(=O)NCC(=O)NCC(=O)NCC(=O)N[C@@H](CS)C(=O)N[C@@H](CCCNC(=N)N)C(=O)N[C@@H](CCCCN)C(=O)N1CCC[C@H]1C(=O)N[C@@H](CS)C(=O)N[C@@H](CCCNC(=N)N)C(=O)N[C@@H](CCCCN)C(=O)N1CCC[C@H]1C(=O)N[C@@H](CS)C(=O)N[C@@H](CCCNC(=N)N)C(=O)N[C@@H](CCCCN)C(=O)N1CCC[C@H]1C(=O)N[C@@H](CS)C(=O)N[C@@H](CCCNC(=N)N)C(=O)N[C@@H](CCCCN)C(=O)N1CCC[C@H]1C(N)=O; organism = Candida albicans; assay = broth microdilution; system = SP 3902, RPMI-1640; setting = 48 h, 30 °C; measurement = MIC; value = 32 µM (≈ 88.4 µg/mL)

A few entries again:
SMILES = CCOC(=O)C1(Cc2ccc(C#N)cc2F)Oc2cc(F)ccc2N(Cc2ccc(C#N)cc2F)C1=O (stereo not shown); organism = Arabidopsis thaliana; assay = root length, petri dish germination; system = Col-0, 1/2 MS medium; setting = 200 µg/mL, 7 days, 22 °C, dark; measurement = inhibition; value = 51.2%
SMILES = Clc1cc(Nc2ncnc3ccc(-c4cccc(N5CCOCC5)c4)cc23)ccc1OCc1ccccc1; organism = Plasmodium falciparum; assay = parasite growth, SYBR Green; system = D6; setting = blood stage; measurement = EC50; value = 790 nM
SMILES = CCOC(=O)C1(Cc2ccc(C)cc2)Oc2cc(F)ccc2N(Cc2ccc(C)cc2)C1=O (stereo not shown); organism = Arabidopsis thaliana; assay = root length, petri dish germination; system = Col-0, 1/2 MS medium; setting = 200 µg/mL, 7 days, 22 °C, dark; measurement = inhibition; value = 56.1%
